Measured values of several laboratories.
Each line is one published result; not all experiments were run side by side. ± marks the error that the study gave.
Chain of UniProt O75676 (whole entry, looked up): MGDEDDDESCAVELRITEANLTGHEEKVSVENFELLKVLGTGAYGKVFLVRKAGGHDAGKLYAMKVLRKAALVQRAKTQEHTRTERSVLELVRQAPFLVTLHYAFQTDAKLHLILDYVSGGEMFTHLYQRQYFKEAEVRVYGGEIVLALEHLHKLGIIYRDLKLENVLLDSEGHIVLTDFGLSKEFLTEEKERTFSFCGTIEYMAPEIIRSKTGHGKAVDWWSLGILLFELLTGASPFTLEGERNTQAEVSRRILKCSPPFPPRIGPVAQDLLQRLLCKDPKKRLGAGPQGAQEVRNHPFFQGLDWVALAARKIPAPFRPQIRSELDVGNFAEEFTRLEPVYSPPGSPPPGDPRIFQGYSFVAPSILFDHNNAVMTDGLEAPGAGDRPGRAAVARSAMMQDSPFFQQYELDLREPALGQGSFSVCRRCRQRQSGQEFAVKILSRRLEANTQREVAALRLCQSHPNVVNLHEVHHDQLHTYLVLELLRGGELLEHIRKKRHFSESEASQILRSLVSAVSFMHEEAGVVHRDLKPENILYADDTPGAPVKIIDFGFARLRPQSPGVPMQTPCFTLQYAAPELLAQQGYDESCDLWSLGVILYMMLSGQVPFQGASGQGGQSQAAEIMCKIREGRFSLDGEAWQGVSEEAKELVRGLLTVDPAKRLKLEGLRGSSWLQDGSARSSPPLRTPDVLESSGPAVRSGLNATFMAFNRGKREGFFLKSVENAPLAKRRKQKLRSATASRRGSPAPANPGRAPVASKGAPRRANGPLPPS
Chain of UniProt Q15046 (whole entry, looked up): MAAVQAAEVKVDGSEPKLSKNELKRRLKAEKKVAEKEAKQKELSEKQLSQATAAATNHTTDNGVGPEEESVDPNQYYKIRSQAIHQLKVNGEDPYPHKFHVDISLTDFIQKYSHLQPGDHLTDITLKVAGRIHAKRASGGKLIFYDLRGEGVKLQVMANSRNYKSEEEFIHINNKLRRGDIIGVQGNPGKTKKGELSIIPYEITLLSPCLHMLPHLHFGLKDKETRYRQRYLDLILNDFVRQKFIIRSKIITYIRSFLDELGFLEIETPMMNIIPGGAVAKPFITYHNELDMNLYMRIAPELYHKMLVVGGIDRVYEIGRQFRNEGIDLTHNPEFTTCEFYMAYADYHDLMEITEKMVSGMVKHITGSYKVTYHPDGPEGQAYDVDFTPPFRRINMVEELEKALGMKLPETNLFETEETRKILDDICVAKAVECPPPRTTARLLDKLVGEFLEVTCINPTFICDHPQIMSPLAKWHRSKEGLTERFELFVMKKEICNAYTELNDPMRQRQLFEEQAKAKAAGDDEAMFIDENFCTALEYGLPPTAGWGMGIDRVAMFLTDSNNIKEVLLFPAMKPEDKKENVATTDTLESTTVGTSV
Chain of UniProt P33913 (whole entry, unmodified, looked up): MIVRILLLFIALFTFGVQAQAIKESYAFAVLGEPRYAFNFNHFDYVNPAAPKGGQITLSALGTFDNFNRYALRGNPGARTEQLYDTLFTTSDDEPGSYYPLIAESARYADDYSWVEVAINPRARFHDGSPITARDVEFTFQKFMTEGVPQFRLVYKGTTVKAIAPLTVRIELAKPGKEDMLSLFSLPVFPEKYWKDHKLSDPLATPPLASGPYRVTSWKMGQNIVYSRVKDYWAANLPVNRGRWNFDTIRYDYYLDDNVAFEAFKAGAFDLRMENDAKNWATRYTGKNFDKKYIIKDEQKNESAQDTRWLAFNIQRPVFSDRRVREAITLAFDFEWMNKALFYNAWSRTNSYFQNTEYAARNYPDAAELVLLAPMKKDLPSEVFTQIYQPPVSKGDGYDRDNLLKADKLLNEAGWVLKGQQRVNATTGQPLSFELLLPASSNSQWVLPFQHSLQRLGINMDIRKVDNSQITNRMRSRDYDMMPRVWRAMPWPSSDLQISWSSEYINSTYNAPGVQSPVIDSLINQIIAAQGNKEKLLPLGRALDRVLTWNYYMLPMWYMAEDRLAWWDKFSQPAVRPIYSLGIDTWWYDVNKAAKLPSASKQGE
Chain of UniProt A0A0D1DWZ5 (whole entry, looked up): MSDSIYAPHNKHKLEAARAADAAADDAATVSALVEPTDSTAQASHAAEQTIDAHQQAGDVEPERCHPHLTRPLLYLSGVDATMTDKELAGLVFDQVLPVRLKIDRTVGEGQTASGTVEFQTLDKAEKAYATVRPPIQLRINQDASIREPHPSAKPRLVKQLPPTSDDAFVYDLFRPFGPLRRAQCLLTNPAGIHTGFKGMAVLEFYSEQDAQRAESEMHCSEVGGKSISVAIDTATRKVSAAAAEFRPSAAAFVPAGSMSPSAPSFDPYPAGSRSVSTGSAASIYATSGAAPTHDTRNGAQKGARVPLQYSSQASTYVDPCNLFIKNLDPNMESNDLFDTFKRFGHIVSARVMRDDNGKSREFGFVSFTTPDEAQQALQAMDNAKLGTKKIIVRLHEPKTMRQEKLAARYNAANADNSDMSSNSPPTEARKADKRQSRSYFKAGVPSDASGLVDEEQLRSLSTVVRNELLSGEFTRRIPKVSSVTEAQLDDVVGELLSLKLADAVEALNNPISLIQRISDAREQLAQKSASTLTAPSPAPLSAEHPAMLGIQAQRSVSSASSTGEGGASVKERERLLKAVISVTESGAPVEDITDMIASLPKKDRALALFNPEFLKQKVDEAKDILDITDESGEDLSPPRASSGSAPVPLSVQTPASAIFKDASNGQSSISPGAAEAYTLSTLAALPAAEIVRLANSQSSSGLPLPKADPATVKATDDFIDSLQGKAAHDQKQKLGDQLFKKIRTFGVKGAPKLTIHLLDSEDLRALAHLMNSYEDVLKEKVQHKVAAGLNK
Chain of UniProt P09211 (whole entry, looked up): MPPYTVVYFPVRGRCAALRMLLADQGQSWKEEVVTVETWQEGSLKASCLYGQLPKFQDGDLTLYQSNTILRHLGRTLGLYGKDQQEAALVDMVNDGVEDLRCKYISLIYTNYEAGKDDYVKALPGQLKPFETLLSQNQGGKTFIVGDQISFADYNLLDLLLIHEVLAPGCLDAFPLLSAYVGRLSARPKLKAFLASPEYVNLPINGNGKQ
Chain of UniProt P20273 (whole entry, looked up): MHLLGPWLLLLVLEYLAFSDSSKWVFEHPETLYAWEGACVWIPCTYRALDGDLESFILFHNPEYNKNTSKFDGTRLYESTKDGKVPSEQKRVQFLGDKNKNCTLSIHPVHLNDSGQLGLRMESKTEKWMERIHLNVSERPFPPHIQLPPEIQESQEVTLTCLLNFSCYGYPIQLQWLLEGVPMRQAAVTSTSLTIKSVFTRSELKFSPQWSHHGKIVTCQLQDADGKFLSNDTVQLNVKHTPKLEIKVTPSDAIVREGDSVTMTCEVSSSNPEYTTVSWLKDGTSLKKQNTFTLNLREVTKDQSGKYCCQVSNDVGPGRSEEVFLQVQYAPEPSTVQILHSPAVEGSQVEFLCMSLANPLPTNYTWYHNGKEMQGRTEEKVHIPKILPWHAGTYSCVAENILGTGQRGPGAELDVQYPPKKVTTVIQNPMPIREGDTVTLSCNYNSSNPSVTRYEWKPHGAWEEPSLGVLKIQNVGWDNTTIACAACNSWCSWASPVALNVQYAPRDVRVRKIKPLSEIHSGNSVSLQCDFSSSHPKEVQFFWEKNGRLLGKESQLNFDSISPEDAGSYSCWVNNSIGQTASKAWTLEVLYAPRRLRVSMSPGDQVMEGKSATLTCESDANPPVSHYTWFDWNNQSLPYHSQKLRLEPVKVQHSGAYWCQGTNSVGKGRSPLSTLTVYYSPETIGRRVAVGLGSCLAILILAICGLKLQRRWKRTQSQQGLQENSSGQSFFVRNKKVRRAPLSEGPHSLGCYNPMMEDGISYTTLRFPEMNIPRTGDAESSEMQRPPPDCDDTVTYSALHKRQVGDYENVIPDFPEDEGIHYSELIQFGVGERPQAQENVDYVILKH
Chain of UniProt P42684 (whole entry, looked up): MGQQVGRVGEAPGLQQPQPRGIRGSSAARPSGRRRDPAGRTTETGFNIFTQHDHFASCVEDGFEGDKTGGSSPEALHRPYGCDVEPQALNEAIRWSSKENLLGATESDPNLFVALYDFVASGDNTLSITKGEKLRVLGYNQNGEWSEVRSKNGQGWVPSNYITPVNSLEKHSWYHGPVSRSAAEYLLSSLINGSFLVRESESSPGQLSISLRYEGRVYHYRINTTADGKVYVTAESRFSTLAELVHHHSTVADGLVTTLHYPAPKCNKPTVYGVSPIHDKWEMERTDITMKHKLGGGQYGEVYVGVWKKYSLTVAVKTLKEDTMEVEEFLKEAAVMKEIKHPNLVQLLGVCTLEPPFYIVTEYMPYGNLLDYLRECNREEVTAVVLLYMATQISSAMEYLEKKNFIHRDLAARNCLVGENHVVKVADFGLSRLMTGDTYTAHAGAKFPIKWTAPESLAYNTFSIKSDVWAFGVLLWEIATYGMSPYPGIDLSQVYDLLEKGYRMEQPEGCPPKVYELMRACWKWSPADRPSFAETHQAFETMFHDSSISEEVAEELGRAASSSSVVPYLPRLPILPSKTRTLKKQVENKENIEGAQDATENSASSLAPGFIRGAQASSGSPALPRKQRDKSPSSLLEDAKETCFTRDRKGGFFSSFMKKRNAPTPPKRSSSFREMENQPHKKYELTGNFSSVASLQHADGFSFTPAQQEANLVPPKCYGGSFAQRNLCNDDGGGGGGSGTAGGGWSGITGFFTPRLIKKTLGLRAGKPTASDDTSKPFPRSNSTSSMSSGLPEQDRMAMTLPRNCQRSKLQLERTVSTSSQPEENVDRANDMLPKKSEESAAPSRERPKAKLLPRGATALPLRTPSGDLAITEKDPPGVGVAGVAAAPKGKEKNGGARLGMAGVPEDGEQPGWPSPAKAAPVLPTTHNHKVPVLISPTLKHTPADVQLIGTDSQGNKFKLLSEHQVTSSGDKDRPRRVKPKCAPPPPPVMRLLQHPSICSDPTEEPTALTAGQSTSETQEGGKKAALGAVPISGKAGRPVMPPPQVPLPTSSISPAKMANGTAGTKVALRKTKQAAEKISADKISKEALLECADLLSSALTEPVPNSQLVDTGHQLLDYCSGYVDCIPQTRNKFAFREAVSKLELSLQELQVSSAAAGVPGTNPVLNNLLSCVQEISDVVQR

Compound | target | assay | test system | conditions | Kd
CSCC[C@H](NC=O)C(=O)N[C@@H](CCCNC(=N)N)C(=O)N[C@H](C(=O)NCC(=O)N[C@@H](CC(N)=O)C(=O)N[C@@H](C)C(=O)N[C@@H](CC(N)=O)C(=O)NCC(=O)NCC(=O)N[C@@H](CCCCNC(=S)Nc1ccc2c(c1)C(=O)OC21c2ccc(O)cc2Oc2cc(O)ccc21)C(=O)O)[C@@H](C)O | Uncharacterized protein YejA (yejA, Escherichia coli, UniProt P33913, N75A) | binding, fluorescence polarisation |  | YejA variant N57A | 6020 ± 370 nM
CC(C)[C@H](NC(=O)[C@H](Cc1ccccc1)NC(=O)[C@H](CC(=O)O)NC(=O)[C@H](CC(=O)O)NC(=O)[C@H](CCC(N)=O)NC(=O)[C@H](CC(=O)O)NC(=O)[C@H](CCC(=O)O)NC(=O)[C@H](CCC(=O)O)NC(=O)[C@H](CCC(N)=O)NC(=O)[C@H](CC(=O)O)NC(=O)[C@H](C)NC(=O)[C@H](C)NC(=O)[C@@H](N)CCC(=O)O)C(=O)N[C@@H](Cc1ccc(O)cc1)C(=O)N1CCC[C@H]1C(=O)NCC(=O)N[C@@H](C)C(=O)N[C@@H](CC(=O)O)C(=O)O | RNA-binding protein RRM4 (RRM4, Mycosarcoma maydis, UniProt A0A0D1DWZ5) | binding, isothermal titration calorimetry | Ustilago maydis | pH 8.0, 25 °C, added: MLLE domain 100 µM | 15800 nM
CSCC[C@H](NC(=O)[C@H](Cc1c[nH]cn1)NC(=O)[C@H](C)NC(=O)[C@H](Cc1ccc(OP(=O)(O)O)cc1)NC(=O)[C@@H]1CCCN1C(=O)[C@H](CCC(N)=O)NC(=O)[C@H](CCCNC(=N)N)NC(=O)[C@H](CCC(=O)O)NC(=O)[C@H](CC(=O)O)NC(=O)[C@H](Cc1ccccc1)NC(=O)[C@H](CO)NC(=O)[C@H](C)NC(=O)[C@H](CCCNC(=N)N)NC(=O)c1ccc2c(c1)C(=O)OC21c2ccc(N(C)C)cc2Oc2cc(N(C)C)ccc21)C(=O)N[C@@H](CC(N)=O)C(=O)NCC(=O)NCC(=O)N[C@@H](CCCNC(=N)N)C(=O)N[C@@H](CC(=O)O)C(=O)O | Tyrosine-protein kinase ABL2, SH2 domain (ABL2, Homo sapiens, UniProt P42684) | binding |  |  | 1360 nM
CC(=O)NCC(=O)N[C@@H](CO)C(=O)N[C@@H](CS)C(=O)N[C@@H](CCCNC(=N)N)C(=O)N[C@@H](CCCCN)C(=O)N[C@@H](CCCNC(=N)N)C(=O)N[C@@H](CC(N)=O)C(=O)N[C@@H](CCCNC(=N)N)C(=O)N[C@@H](CO)C(=O)N1CCC[C@H]1C(=O)N[C@@H](CCC(=O)O)C(=O)N[C@@H](CCCNC(=N)N)C(N)=O | WDR5 (Homo sapiens, UniProt P61964) | binding, isothermal titration calorimetry |  | pH 7.0, 20 °C | 14600 nM
CCCc1cc2cc(-n3nc(C(F)F)c4c3CC(C)(C)CC4=O)cc(N3CCC(O)CC3)c2c(=O)[nH]1 | HSP90AA1 (Homo sapiens, UniProt P07900) | fluorescence polarization |  | 24 h, 4 °C, added: FITC-geldanamycin tracer | > 100000 nM
CC1(C)C(NC(=O)C(=NOC2(C(=O)O)CC2)c2csc(N)n2)C(=O)N1OS(=O)(=O)O (stereo not shown) | blaUOE-1 (Escherichia coli, UniProt Q9EXV5) | binding, surface plasmon resonance |  |  | 54000 nM
Cc1ncc([N+](=O)[O-])n1CC(O)Cn1cc(CO[C@]2(C(=O)O)C[C@H](O)[C@@H](NC(=O)CF)[C@H]([C@H](O)[C@H](O)CNC(=O)c3ccc(Oc4ccccc4)cc3)O2)nn1 (stereo partly shown) | CD22 (Homo sapiens, UniProt P20273) | binding, ITC |  |  | 2220 nM
CC[C@H](C)[C@@H]1NC(=O)[C@@H](C)NC(=O)[C@H](CCC(=O)N[C@@H](CCCCN)C(N)=O)NC(=O)[C@@H](C)NC(=O)[C@@H](C)NC(=O)[C@H](Cc2c[nH]c3ccccc23)NC(=O)[C@H](Cc2ccc(O)cc2)NC(=O)[C@H](CCCNC(=N)N)NC(=O)[C@H](Cc2ccc(F)cc2)NC1=O | Lysine--tRNA ligase (KARS1, Homo sapiens, UniProt Q15046) | binding |  |  | 400 nM
C=C(CC)C(=O)c1ccc(OCC(=O)NCCNC(=O)CCN2C=C/C(=C\c3sc4ccccc4[n+]3CCC(=O)NCCNC(=O)COc3ccc(C(=O)C(=C)CC)c(Cl)c3Cl)c3ccccc32)c(Cl)c1Cl | GSTP1 (Homo sapiens, UniProt P09211) | fluorescence titration |  | 30 min, pH 6.5 | 29 ± 5.21 nM
O=C(N[C@@H]1c2ccccc2C[C@H]1N1CCCC1)c1ccc(-c2ccnc3[nH]ccc23)nc1 | Ribosomal protein S6 kinase alpha-4, C-terminal kinase domain (RPS6KA4, Homo sapiens, UniProt O75676) | binding, competition with immobilised ligand |  |  | 630 nM

For quick reference, copied from above:
Compound | target | assay | test system | conditions | Kd
CC[C@H](C)[C@@H]1NC(=O)[C@@H](C)NC(=O)[C@H](CCC(=O)N[C@@H](CCCCN)C(N)=O)NC(=O)[C@@H](C)NC(=O)[C@@H](C)NC(=O)[C@H](Cc2c[nH]c3ccccc23)NC(=O)[C@H](Cc2ccc(O)cc2)NC(=O)[C@H](CCCNC(=N)N)NC(=O)[C@H](Cc2ccc(F)cc2)NC1=O | Lysine--tRNA ligase (KARS1, Homo sapiens, UniProt Q15046) | binding |  |  | 400 nM
